Experimental data pooled from the literature.
Each numbered part is a random draw from the data of one study; scales do not carry over between parts. Positions count from the first letter of the parent shown.

Set 1 — target: CCNB1, cyclin fold, Cln2 fusion (human); method: yeast growth competition, sequencing; matrix: yeast; notes: strong parent motif; baseline: not given; reading: higher = stronger binding
Parent: PKN2 docking peptide (human); VSAVQKLDFSDTM
Under “normalised enrichment score”, `VSAVQKLDFSCTM [D11C]` is recorded as 1.73.
For `VSAVQKVDFSDTM [L7V]`, “normalised enrichment score” read -0.171.
`VSAVQKLDFSDTR [M13R]` — result for “normalised enrichment score”: 1.9.
For `VSAVQKLTFSDTM [D8T]`, “normalised enrichment score” read 1.34.
Under “normalised enrichment score”, `VSAIQKLDFSDTM [V4I]` is recorded as 1.46.
`VSAVQLLDFSDTM [K6L]`: “normalised enrichment score” 0.115.
`VSAVQTLDFSDTM [K6T]`: “normalised enrichment score” 0.469.

Set 2 — method: protein-binding microarray; form: double-stranded DNA, one strand shown; matrix: in vitro; tested at: 2540 nM top; notes: 60-bp whole probe; with: salmon DNA 0.4 mg/ml; baseline: random background probes; reading: higher = stronger binding; constant ends, left off below: GCCTAGCAC … GTCTTGATTCGCTTGACGCTGCTG
Target: Interferon regulatory factor 3, full length, phosphomimetic (IRF3, Homo sapiens, UniProt Q14653, residues 1-427, S386D/S396D/S398D/S402D/T404D/S405D)
Sequence of UniProt Q14653 (whole entry, unmodified, looked up): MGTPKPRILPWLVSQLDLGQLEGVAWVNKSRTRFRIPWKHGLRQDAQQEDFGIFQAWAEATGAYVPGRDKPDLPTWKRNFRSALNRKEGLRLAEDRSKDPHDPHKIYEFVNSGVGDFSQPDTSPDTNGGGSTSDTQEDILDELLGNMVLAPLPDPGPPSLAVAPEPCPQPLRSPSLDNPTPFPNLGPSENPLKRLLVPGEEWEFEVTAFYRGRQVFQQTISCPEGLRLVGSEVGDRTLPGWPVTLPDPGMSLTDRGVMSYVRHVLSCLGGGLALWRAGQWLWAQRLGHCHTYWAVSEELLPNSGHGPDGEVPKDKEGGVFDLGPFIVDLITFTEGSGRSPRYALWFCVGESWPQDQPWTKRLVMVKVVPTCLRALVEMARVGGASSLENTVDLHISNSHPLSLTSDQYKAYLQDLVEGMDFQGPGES
For `CTTTTATTAGTGACTCAGCACGTGCTA`, “fitted relative affinity” read 2.97 z-score.
For `GTGGGAAACCGGAAAGGCAAAGTGCTA`, “fitted relative affinity” read 1.1 z-score.
Under “fitted relative affinity”, `GGGTCTTCAGGTTCTCCCCCAGTGCTA` is recorded as -0.494 z-score.
For `TTTGGTTTCGGGACTGGGTTAGTGCTA`, “fitted relative affinity” read 5.12 z-score.
`GACGGTATGGGTCTCGGGACGTGCTAG`: “fitted relative affinity” -0.482 z-score.
`TTAGGTTCCGGTTTCGGATAGTGCTAG` — result for “fitted relative affinity”: 7.5 z-score.
Under “fitted relative affinity”, `TTAGGACTAGACTTTCGGTTAGTGCTA` is recorded as 1.26 z-score.
`GACGGTTCCCTTTTCCAGACGTGCTAG` — result for “fitted relative affinity”: 6.34 z-score.
For `GCAGGGCAGGCAGGCTGAGGGTGCTAG`, “fitted relative affinity” read -1.62 z-score.
`GACGGTCTCGGTTTCGGGAAGTGCTAG` — result for “fitted relative affinity”: 3.65 z-score.
`TTAGGTCTCGGCTTCGGTTAGTGCTAG` — result for “fitted relative affinity”: -0.275 z-score.
`AGATGCCAAGAGGCATGATGGTGCTAG` — result for “fitted relative affinity”: -0.535 z-score.
Under “fitted relative affinity”, `TAAGAACTGGGGTTTCGATTAGTGCTA` is recorded as 1.27 z-score.
For `TCACATTTCCAATTACCACTGTGCTAG`, “fitted relative affinity” read 3.21 z-score.
`TTAGGGATCGGGACTGGGTTAGTGCTA`: “fitted relative affinity” -0.319 z-score.
`TTAGAATTCAGTTCCGATTAGTGCTAG`: “fitted relative affinity” 2.44 z-score.

Set 3 — method: protein binding microarray; form: double-stranded DNA, one strand shown; matrix: in vitro; tested at: not given; baseline: not given; reading: higher = stronger binding
Target: Histone acetyltransferase KAT6A, winged helix 2, GST fusion (KAT6A, Homo sapiens, UniProt Q92794, residues 85-181)
Notes: 8-mer, flanks averaged, mean of 2 arrays, mostly near background
Residues (chain): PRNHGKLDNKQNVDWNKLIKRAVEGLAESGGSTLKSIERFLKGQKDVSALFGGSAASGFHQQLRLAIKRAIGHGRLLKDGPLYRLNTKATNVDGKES
For `AGACCACC`, the E-score was -0.0455.
The E-score of `CAGTCGCA` is reported as -0.0051.
With `GCATCGGA` the E-score was 0.106.
The E-score of `CGCCCGTC` is reported as 0.176.
For `AGTGTCTA`, the E-score was -0.0297.
With `ATGTCCCC` the E-score was -9e-05.
For `ACTCACAC`, the E-score was 0.0529.
`CCGAAAAA` gave an E-score of 0.166.
`CCCCGCAA` gave an E-score of 0.061.
For `CATCGCAG`, the E-score was 0.0621.
For `ACCGCAGC`, the E-score was 0.0918.
`GAAGAGAA` has an E-score of 0.115.
`CTCTACAG` gave an E-score of -0.049.
The E-score of `CGCTTGGC` is reported as 0.127.

Single results of other studies
The fold induction of `PhoQ, residues 284 288 289 292 302 303 TASMAF` is reported as 13.5 (PhoP, residues 12 14 15 18 19 NMSFL (Escherichia coli, UniProt P23836); Sort-seq, refers to: YFP reporter; E. coli; PhoQ-PhoP variant library, with: 10 µM Mg2+; baseline: high Mg2+ state, higher = stronger signaling).

A few entries again (set 2):
Under “fitted relative affinity”, `TTAGGACTAGACTTTCGGTTAGTGCTA` is recorded as 1.26 z-score.
`GACGGTTCCCTTTTCCAGACGTGCTAG` — result for “fitted relative affinity”: 6.34 z-score.
For `GCAGGGCAGGCAGGCTGAGGGTGCTAG`, “fitted relative affinity” read -1.62 z-score.
